Published values pooled from the literature.
Numbered parts are unrelated; each lists some results of a single study. Positions count from the first letter of the parent shown.

Set 1 — target: FOSL2, bZIP domain (human); technique: DHFR protein complementation; sample: yeast; reference: wild-type JUN-FOS pair; direction: higher = stronger binding
Setting: single substitutions, most at no-binding floor
Parent: JUN, bZIP domain (human); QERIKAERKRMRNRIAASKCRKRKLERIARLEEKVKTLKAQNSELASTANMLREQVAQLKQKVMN; partner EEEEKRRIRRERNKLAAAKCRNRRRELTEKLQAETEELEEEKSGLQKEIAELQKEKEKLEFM
Substitution	binding fitness
L45C	-1.07 natural log
K39N	-0.367 natural log
R53G	-0.541 natural log
A46L	0.0467 natural log
Q41P	-1.27 natural log
T37Q	0.136 natural log
S47W	0.0133 natural log
E54F	-0.139 natural log

Set 2 — target: CCND1, cyclin fold, Cln2 fusion (human); technique: yeast growth competition, sequencing; sample: yeast; setting: strong parent motif; reference: not given; direction: higher = stronger binding
Parent: viral docking peptide; YKVKRRLVFGADD; partner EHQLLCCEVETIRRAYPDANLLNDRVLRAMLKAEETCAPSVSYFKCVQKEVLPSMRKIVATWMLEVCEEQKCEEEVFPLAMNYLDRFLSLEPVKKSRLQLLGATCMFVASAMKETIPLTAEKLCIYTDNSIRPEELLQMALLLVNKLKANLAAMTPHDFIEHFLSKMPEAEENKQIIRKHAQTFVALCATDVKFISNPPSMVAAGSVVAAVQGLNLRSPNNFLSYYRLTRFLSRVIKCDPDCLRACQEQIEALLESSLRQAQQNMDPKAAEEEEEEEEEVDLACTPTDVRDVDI
Substitution	normalised enrichment score
R6E	1.11
F9I	0.156
R5A L7A	0.255
R6N	0.438
K2F	0.635
F9T	0.139
D12Y	0.756
G10L	0.937
R5P	0.352
L7T	-0.0455
K4G	1.35
D12R	0.186
R5Q	0.697
K2R	2.16
V8C	1.64
V8F	1.72
F9N	0.0815
K4Y	0.745

Set 3 — technique: DHFR PCA, dose-response; sample: yeast; together with: (+)-ABA, dose series; direction: lower = more sensitive
Target: ABI1, truncated, D143A, DHFR fusion (Arabidopsis thaliana, UniProt P49597)
Setting: Hill fit, not affinity, not high confidence
Parent: PYL1, truncated, DHFR fusion (Arabidopsis thaliana, UniProt Q8VZS8); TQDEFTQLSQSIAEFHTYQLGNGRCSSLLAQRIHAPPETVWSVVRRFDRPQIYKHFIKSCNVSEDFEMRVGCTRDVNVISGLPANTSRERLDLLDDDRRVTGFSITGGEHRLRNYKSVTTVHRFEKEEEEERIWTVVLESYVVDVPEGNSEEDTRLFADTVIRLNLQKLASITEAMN
Substitution	ABA EC50
R99D	1890 µM
I105W	20.1 µM
N165W	741 µM
V121F	2070 µM
Y53D	2.59 µM
K54W	27 µM
S140E	2.46 µM
W41Q	7.05 µM

Set 4 — effect on: binding; technique: phage display NGS; molecule type: peptide; concentration: concentration not given; setting: normalized abundance; reference: input library
Target: UDP-N-acetylglucosamine--peptide N-acetylglucosaminyltransferase 110 kDa subunit (OGT, Homo sapiens, UniProt O15294)
Construct (O15294 1-1046): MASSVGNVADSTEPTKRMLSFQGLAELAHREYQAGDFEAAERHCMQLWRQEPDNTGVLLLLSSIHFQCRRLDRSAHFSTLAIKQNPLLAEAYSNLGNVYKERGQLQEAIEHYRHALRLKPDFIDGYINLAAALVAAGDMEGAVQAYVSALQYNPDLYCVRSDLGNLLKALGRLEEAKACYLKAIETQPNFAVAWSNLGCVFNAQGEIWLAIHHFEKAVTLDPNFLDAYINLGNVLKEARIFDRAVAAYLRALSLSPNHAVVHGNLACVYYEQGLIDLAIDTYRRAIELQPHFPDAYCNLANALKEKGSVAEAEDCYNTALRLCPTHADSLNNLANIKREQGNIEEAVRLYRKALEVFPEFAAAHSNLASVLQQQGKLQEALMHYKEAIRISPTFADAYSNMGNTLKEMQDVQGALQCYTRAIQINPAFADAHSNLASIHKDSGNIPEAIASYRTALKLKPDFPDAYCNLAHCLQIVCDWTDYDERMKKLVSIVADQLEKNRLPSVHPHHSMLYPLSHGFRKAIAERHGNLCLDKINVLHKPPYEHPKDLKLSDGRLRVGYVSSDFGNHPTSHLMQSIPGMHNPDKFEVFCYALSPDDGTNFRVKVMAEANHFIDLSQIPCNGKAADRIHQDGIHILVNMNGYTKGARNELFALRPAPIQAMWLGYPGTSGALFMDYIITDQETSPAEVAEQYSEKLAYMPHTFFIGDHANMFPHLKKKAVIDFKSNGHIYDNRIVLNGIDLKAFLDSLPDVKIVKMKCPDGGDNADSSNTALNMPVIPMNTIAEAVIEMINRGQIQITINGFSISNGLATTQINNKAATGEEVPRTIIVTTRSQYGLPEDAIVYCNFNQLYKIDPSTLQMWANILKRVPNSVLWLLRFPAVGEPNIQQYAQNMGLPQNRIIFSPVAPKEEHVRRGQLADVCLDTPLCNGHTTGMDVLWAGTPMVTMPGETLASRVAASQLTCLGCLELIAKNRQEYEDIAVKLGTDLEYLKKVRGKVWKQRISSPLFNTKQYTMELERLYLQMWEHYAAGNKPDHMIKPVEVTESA
Molecule	enrichment fold change
GPNHIHHGHSEPHHI	12.2
TVWPHHSPHHDYDT	7.5
DHDHLWQRLHDGHTS	7.01
HSDPTGYLHHHHFL	4.39
QQGFAPQYQILIEWE	9.66
